Results from different studies.
Protocols differ between the studies behind these lines. ± gives the spread as reported.

Structure (SMILES) | test | test system | setting | scale | endpoint | result
CN1C(=O)CC(=O)N(c2ccccc2)c2cc(Cl)ccc21 | – | CF-1 mouse, brain | intraperitoneal, 17 mg/kg | – | half-life | 1.51 h
CN1CC[C@@]23CCCC[C@@H]2[C@@H]1Cc1ccc(O)cc13 | – | Wistar rat, both sexes, plasma | oral, 5 mg/kg DEM, DEM 2 h after pretreatment, added: TCE 400 mg/kg single pretreatment | – | MRT(0-t) | 3.23 ± 1.3 h
COc1nc2ccc(Br)cc2cc1[C@@H](c1ccccc1)[C@@](O)(CCN(C)C)c1cccc2ccccc12 | – | mouse, BALB/c, plasma | oral, 25 mg/kg, 72 to 168 h terminal | – | t1/2 | 89.3 h
COc1ccsc1CNCC[C@@]1(c2ccccn2)CCOC2(CCCC2)C1 | – | healthy human, normal hepatic function, plasma | intravenous, 1 mg single dose, geometric mean | – | volume of distribution (Vz) | 126 L
C#Cc1ccc2c(c1)C(c1ccccc1F)=N[C@@H](C)c1c(C(=O)OC)ncn1-2 | metabolic stability | human, liver microsomes | 30 min | – | compound remaining | < 5%
COc1cccc(C2(O)CCCCC2CN(C)C)c1 (centres unmarked) | – | human, plasma | oral, 100 mg, single dose, fasted | – | AUC | 2980 ng·h/mL
COc1ccc2[nH]cc(CCN(C)C)c2c1 | LC-MS/MS | rat, whole brain | subcutaneous, 1 mg/kg, added: clorgyline | – | time of micromolar brain level | ≥ 60 min
Cc1ncc2n1-c1ccc(Cl)cc1C(c1ccccc1F)=NC2 | – | human, CYP3A5*3/*3 non-expressers | oral, compound alone, geometric mean | – | oral clearance | 105 L/h
C=CCN1CC[C@]23c4c5ccc(O)c4O[C@H]2C(=O)CC[C@@]3(O)[C@H]1C5 | cytochrome c release, ELISA | BALB/cByJ female mouse liver mitochondria | 30 min | relative to: alamethicin maximal release | EC20 | > 400 µM
C=C1C[C@@H]2[C@H](CC[C@]3(C)C(=O)CC[C@@H]23)[C@@]2(C)C=CC(=O)C=C12 | LC-MS/MS | postmenopausal breast cancer women, plasma | oral, 25 mg/day, 2 h, CYP3A4*22 carriers, outlier excluded | – | median plasma concentration | 10.5 ng/mL
CNC(=O)O/N=C/C(C)(C)[S+](C)[O-] (centres unmarked) | – | human liver mitochondrial preparation | 1 µM, 30 min, 0.5 mg/mL protein | – | percent metabolized | 5.58%
NC(=O)OC[C@H](N)Cc1ccccc1 | – | male Swiss mouse, brain | oral, 10 mg/kg | – | Tmax | 0.5 h
C#Cc1ccc2c(c1)C(c1ccccn1)=NCc1c(-c3cnco3)ncn1-2 | – | Sprague-Dawley rat, brain | intraperitoneal, 10 mg/kg, 4 h, unbound | – | concentration | 363 nM
Cc1ncc2n1-c1ccc(Cl)cc1C(c1ccccc1F)=NC2 | – | healthy men, plasma | oral, 7.5 mg, without amenamevir | – | AUC(0-inf) arithmetic mean | 118 ng·h/mL
C[C@H]1CNCCc2ccc(Cl)cc21 | – | Sprague-Dawley rat, male, plasma | subcutaneous, 0.5 mg/kg, 240 min | – | plasma concentration | 2.05 ± 0.07 ng/mL
COc1ccc2c(c1)[C@]13CCCC[C@@H]1[C@H](C2)N(C)CC3 | – | Wistar rat, both sexes, plasma | oral, 5 mg/kg, 2 h after pretreatment, added: single TCE 100 mg/kg | – | MRT(0-t) | 3.68 ± 0.46 h
CCCCCCCCCCC(=O)O[C@H]1CC[C@H]2[C@@H]3CCC4=CC(=O)CC[C@]4(C)[C@H]3CC[C@]12C | – | human blood | 300 ng/mL, 30 min, 4 °C, NaF 5 mg/mL, K2 oxalate 4 mg/mL | relative to: no compound added | testosterone change | -1%

Excerpt of the above:
Structure (SMILES) | test | test system | setting | scale | endpoint | result
C#Cc1ccc2c(c1)C(c1ccccn1)=NCc1c(-c3cnco3)ncn1-2 | – | Sprague-Dawley rat, brain | intraperitoneal, 10 mg/kg, 4 h, unbound | – | concentration | 363 nM
